Experimental data of several laboratories.
Parts stem from different laboratories: compare values within a part only. Positions count from the first letter of the parent shown.
Chain of UniProt P62837 (whole entry, looked up): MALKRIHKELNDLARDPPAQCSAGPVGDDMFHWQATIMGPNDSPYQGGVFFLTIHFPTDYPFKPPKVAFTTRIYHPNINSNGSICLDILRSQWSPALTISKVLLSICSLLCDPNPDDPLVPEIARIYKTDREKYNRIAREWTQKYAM

Series 1
Target: HLA class I histocompatibility antigen, A alpha chain, allele A*80:01 (Homo sapiens, UniProt P04439)
Effect on: peptide-MHC binding
Form: peptide
Tested at: concentration not given
Sequence	binding
KSRQGDTKV	inactive
GTTVVKVKY	inactive
ITDEINQIK	inactive
RRRPVTRPL	inactive

Series 2
Target: Ras GTPase-activating protein-binding protein 1, C-terminal RGG region (G3BP1, Homo sapiens, UniProt Q13283)
Chain of UniProt Q13283 (whole entry, looked up): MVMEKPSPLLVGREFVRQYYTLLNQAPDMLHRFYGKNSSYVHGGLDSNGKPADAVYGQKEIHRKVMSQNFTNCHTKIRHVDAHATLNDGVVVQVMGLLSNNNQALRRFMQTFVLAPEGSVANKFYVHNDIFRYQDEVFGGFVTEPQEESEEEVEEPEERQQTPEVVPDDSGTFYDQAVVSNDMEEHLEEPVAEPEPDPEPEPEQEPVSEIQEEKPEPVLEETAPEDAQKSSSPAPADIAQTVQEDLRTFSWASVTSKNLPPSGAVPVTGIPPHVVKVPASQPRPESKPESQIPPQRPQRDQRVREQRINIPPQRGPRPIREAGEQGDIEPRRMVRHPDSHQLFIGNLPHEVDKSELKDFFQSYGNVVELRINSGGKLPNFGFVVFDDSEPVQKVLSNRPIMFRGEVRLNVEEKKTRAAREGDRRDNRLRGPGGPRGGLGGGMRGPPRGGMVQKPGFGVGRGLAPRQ
Technique: RNA Bind-n-Seq
Form: RNA
Matrix: in vitro
Tested at: 1 µM
Setting: whole 134-nt RNA, ends assumed
Together with: 150 mM KCl
Reference: input library
Reading: higher = stronger binding
Shared flanks, not repeated: GGGAGUUCUACAGUCCGACGAUC … UGGAAUUCUCGGGUGUCAAGG
Oligonucleotide	log2 enrichment
UAACUUUAGAGGAGGAUCUGAUGGAUAUGGCAGUGGACGUGGAUUUGGGGAUGGCUAUAAGGGGUAUGGAGGAGGACCUGGAGGUGGCAA	-0.653
UAACUUUAGAGGAGGAUCUGAUGGAUAUGGCAGUGGACGUGGAUUUGGGGAUGGCUAUAAUGGAUAUGGAGGAGGACCUGGAGGUGGCAA	-0.746
UAACUUUAGAGGAGGAUCUGAUGGAUAUGGCAGUGGACGUGGAUGUGGGGAUGGCUAUAAUGGGUAUGGAGGAGGACCUGGAGGUGGCAA	-1.31
CUCAAGUCCUGUGCUACACAUCGUAUGUACCGAAUCGGGAGGGGAGGGGAGGGAAAGUAUUAUGUUACGCCGUUCGGAUCUGCACUUCCA	2.47
CACAGACAACACGCACCCACACAGACACAGAGGGAAGGGGUUGGGAUGGGGACAGGGUGCACAGCAGGGCGGGGUAGGACCCCAGACCCU	-1.4
UAACUUUAGAGGAGGAUCUGAUGGAUAUGGCCGUGGACGUGGAUUUGGGGAUGGCUAUAAUGGGUAUGGAGGAGGACCUGGAGGUGGCAA	-1.35
UCCUGUGCUACACAUCGUAUGUACCGAAUCGGGAAAAAAAGGGUUUGGGAAAAAAAGGGAAAGUAUUAUGUUACGCCGUUCGGAUCUGCA	-0.934
UCAGGUCCUUAAGUACCUUCGUAUUACUUUUAGCAGGAAAAACGGCAUGUUUUGCAUCUGGUGUGCAAUGUGAAGAGUCCUUCAAAAAUG	-0.581

Series 3
Target: CCND1, cyclin fold, Cln2 fusion (human)
Technique: yeast growth competition, sequencing
Matrix: yeast
Setting: weak parent motif
Reference: not given
Reading: higher = stronger binding
Starting sequence: viral docking peptide; TSVRRALFTGGSD
Substitution	normalised enrichment score
TSVRRARFTGGSD [L7R]	0.313
TSVRRKLFTGGSD [A6K]	0.306
TSVRGALFTGGSD [R5G]	0.241
TSVRMALFTGGSD [R5M]	0.254
TSVRRALFTRGSD [G10R]	0.74
TSVNRALFTGGSD [R4N]	0.36
TAVRRALFTGGSD [S2A]	0.207
TSVRRWLFTGGSD [A6W]	0.353
TSVRRAFFTGGSD [L7F]	-0.126
TSVRRAAFTGGSD [L7A]	0.157
TSVRRALFGGGSD [T9G]	0.627
TSVRRALFTGPSD [G11P]	0.753
TSVRQALFTGGSD [R5Q]	0.188
TSLRRALFTGGSD [V3L]	0.337
TSVRRAHFTGGSD [L7H]	-0.0905
TSVRRALFTDGSD [G10D]	1.08
TVVRRALFTGGSD [S2V]	0.143
TSKRRALFTGGSD [V3K]	0.157
TSVFRALFTGGSD [R4F]	0.513
TSVRRALFTGGWD [S12W]	0.304
TSVRRALMTGGSD [F8M]	-0.229
TSVRVALFTGGSD [R5V]	0.279
TSNRRALFTGGSD [V3N]	-0.17

Series 4
Target: Centromere-binding protein 1, full length, N-terminal tag (CBF1, Saccharomyces cerevisiae, UniProt P17106, residues 1-351)
Chain of UniProt P17106 (whole entry, looked up): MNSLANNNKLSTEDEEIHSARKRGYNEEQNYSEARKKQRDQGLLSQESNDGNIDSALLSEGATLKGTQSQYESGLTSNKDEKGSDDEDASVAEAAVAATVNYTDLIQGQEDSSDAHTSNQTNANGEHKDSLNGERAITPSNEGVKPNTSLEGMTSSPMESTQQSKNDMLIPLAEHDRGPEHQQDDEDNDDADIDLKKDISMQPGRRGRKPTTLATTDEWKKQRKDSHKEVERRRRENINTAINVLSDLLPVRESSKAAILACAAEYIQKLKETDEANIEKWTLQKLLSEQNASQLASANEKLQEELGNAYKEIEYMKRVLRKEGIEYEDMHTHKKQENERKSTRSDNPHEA
Technique: protein-binding microarray
Form: double-stranded DNA, one strand shown
Matrix: in vitro
Tested at: 0.8 µM
Setting: whole 60-bp probe, no competitor
Reading: higher = stronger binding
Shared flanks, not repeated: … GTCTTGATTCGCTTGACGCTGCTG
Oligonucleotide	fluorescence intensity
TGTACGAAGCTATAGCACATGCTTATAGTAGTTAGG	701 a.u.
GAATATGACTTTCATCACCTTCCCATCTGAAGATAG	487 a.u.
GAAAGTTTTTAATACATCAGAACAGAAGGAAGTTAG	670 a.u.
GAAATGCGTTCCAGTTGCATCATGTGTATTGTTTAG	969 a.u.
CTAGATCCCATCCAACACACGTGTTAAAATGACTTC	4710 a.u.
CCTAACTACTATATTCACGTAGAATAGCTTCGTACA	623 a.u.
TGTACGAAGCTATCACAGCACGTTATAGTAGTTAGG	634 a.u.
GAAGCTTGTAAACATTTCGTGACTGCCCTCGAATAG	549 a.u.

Series 5
Target: Prothrombin, mature alpha-thrombin (F2, Homo sapiens, UniProt P00734)
Technique: aptamer microarray, sandwich
Form: DNA with 2'F-ANA
Matrix: in vitro
Tested at: 200 nM
Setting: whole 15-mer aptamer, many near background
Together with: Cy3 exosite-II aptamer, 400 nM
Reading: higher = stronger binding
Oligonucleotide: GGTTGGTGTGGTTGG
Modification	mean fluorescence intensity [a.u.]
2'F-ANA at 3 8 9 10 15	572
2'F-ANA at 6 8 10 11 12 15	138
2'F-ANA at 1 3 4 7 9 13 15	127
2'F-ANA at 3 5 11 14	60.6
2'F-ANA at 3 4 5 6 9 11 13 14 15	53.8
2'F-ANA at 1 4 7 11	117
2'F-ANA at 1 5 8 10 12 13 14 15	44.6
2'F-ANA at 3 9 10 13	443

Single results of other studies
B1: NSMCE1 RING domain (UniProt Q8WV22); chain RETYPDAVKICNICHSLLIQGQSCETCGIRMHLPCVAKYFQSNAEPRCPHCNDYWPHEIPKV
Sequence	target	assay	system	setting	scale	endpoint	value
B1 (NSMCE1 RING domain)	UBE2D2 UBC core domain (UniProt P62837)	yeast two-hybrid	yeast	mostly zero background	reference: not given, higher = stronger interaction	lacZ reporter activity	0
